Measurements gathered from unrelated publications.
Numbered parts are unrelated; each lists some results of a single study.

Study 1
Target: Phosphate system positive regulatory protein PHO4, full length, GST-tagged (PHO4, Saccharomyces cerevisiae, UniProt P07270, residues 1-312)
Method: competition protein-binding microarray
Form: double-stranded DNA, one strand shown
Medium: in vitro
Tested at: 2 µM
Notes: whole 60-bp probe, lowest competitor level
Together with: Cbf1 competitor, 0.05 µM
Direction: higher = stronger binding
All sequences stand within: … GTCTTGATTCGCTTGACGCTGCTG
Residues (chain): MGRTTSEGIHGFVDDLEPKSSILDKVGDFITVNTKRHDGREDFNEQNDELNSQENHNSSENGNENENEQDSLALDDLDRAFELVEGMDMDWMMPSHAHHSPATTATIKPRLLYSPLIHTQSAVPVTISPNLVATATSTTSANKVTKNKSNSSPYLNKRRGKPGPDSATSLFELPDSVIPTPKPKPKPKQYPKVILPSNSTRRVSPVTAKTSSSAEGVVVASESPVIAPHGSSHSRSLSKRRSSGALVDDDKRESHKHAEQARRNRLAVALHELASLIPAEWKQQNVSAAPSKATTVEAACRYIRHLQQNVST
The fluorescence intensity of `CGGGGTTAAGTTTGCCTTGTGGGTGGCTTGCAGCAG` is reported as 6290 a.u.
The fluorescence intensity of `CGGCCGGCCGAAAGCCATGCGGCCCAACAAGCGGCG` is reported as 4660 a.u.
For `CATACCCAACCTTGTAGCGTGGGTGAAGATATTTGT`, the fluorescence intensity was 6830 a.u.
`CTTCTGTAAATTTGACAAGTGGGTGGACGCGCCCCG` gave a fluorescence intensity of 3800 a.u.
For `CAGCAACTTAGTTTGCACGTGGCCGTCCTCTGTGTG`, the fluorescence intensity was 20400 a.u.
`TGCGCAACAACTTGGGGAGTGGGTGTATGTCTAGAA` gave a fluorescence intensity of 4480 a.u.
For `CCAACACCGTCTTCACCCGTGCAAATGCCTTCTGCG`, the fluorescence intensity was 6770 a.u.
`GTCTTGTCTCATTGTTAAGTGGGTGTCCCCACTTCA` gave a fluorescence intensity of 4840 a.u.

Study 2
Cell line: HEK-293T
Observed: pseudovirus infection
Organism: VSV pseudotyped with SARS-CoV-2 spike
Tested at: 10 µM
Time: 16 h
Reference: vehicle-treated
`Cc1ccc(N(CC2=NCCN2)c2cccc(O)c2)cc1` has a GFP-positive cells of 91.7%.
With `CC(=O)OCC(=O)[C@H]1CC[C@H]2[C@@H]3CCC4=CC(=O)CC[C@]4(C)[C@H]3CC[C@]12C` the GFP-positive cells was 87.4%.
`C[C@@H](c1ncncc1F)[C@](O)(Cn1cncn1)c1ccc(F)cc1F` has a GFP-positive cells of 78.2%.
The GFP-positive cells of `CN1CCCC(n2nc(Cc3ccc(Cl)cc3)c3ccccc3c2=O)CC1` (centres unmarked) is reported as 31.2%.

Study 3
Target: Replicase polyprotein 1ab, main protease (rep, Severe acute respiratory syndrome coronavirus 2, UniProt P0DTD1)
Observed: enzyme activity
Action: inhibitor
Tested at: 20 µM
Notes: primary screen
With `CCCCCCCCCCCCCCCC[n+]1ccn(Cc2ccccc2)c1C` the inhibition was 83.4%.
For `N#Cc1c(O)c2c(-c3ccc(-c4ccccc4O)cc3)csc2[nH]c1=O`, the inhibition was 54%.
For `Cc1ccccc1N(C)C(=O)c1ccc([S+]([O-])c2nccs2)c([N+](=O)[O-])c1` (centres unmarked), the inhibition was 96.7%.
`O=C(Nc1ccc(Cl)c(Cl)c1)Nc1ccc(Cl)c(Cl)c1` has an inhibition of 51.6%.
The inhibition of `O=C(c1cccs1)c1no[n+]([O-])c1C(=O)c1cccs1` is reported as 96.1%.

Study 4
Target: Sal-like protein 4, full length isoform A (SALL4, Homo sapiens, UniProt Q9UJQ4, residues 1-1053)
Sequence of UniProt Q9UJQ4 (whole entry, looked up): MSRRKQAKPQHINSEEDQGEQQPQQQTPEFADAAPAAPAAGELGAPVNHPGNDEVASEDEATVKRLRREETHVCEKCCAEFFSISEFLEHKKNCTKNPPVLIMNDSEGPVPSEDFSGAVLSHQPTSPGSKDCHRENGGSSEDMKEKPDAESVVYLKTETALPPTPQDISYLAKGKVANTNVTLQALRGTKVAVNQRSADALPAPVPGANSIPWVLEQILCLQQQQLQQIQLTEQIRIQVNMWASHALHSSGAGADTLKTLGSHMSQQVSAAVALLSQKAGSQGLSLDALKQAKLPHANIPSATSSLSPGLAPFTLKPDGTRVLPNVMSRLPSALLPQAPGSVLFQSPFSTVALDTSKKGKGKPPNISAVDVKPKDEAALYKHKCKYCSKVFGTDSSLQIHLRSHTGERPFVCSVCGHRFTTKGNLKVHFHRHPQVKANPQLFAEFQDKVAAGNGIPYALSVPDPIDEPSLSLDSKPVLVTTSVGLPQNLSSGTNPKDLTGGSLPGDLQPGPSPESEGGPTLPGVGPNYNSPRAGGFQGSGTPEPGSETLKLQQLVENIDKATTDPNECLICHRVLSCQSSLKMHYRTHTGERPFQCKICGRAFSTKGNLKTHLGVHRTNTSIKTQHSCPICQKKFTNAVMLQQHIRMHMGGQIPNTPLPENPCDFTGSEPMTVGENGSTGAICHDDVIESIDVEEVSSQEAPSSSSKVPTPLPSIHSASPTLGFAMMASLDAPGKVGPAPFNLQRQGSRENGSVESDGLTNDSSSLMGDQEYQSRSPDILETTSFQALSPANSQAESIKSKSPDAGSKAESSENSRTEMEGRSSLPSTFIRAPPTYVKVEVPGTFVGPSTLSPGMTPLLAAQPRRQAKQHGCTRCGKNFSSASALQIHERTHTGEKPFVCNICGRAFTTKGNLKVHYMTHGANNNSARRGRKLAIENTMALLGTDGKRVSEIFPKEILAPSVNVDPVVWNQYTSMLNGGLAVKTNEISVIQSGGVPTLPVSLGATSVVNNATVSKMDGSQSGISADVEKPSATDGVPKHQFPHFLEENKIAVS
Method: universal PBM
Form: double-stranded DNA, one strand shown
Medium: in vitro
Tested at: 600 nM
Notes: 8-mer, flanks averaged, mean of replicates
Direction: higher = stronger binding
With `CCGAAGAG` the E-score was -0.0853.
`TAAAAAAA` has an E-score of 0.354.
For `GACATCAA`, the E-score was 0.188.
`GTAGATCA` has an E-score of 0.0412.
The E-score of `CCTCATTA` is reported as 0.207.
For `GGTGATAA`, the E-score was 0.164.
With `ACCGGGAT` the E-score was -0.269.
`CGTATAAA` gave an E-score of 0.34.

Study 5
Target: Replicase polyprotein 1ab, polymerase (rep, Severe acute respiratory syndrome coronavirus 2, UniProt P0DTD1)
Observed: enzyme activity
Action: inhibitor
Tested at: 20 µM
For `Clc1cccc(Nc2nnc(-c3ccccc3)c3ccccc23)c1`, the inhibition was -3.88%.
The inhibition of `CC(C)(C)C(=O)OCOP(=O)(COCCn1cnc2c(N)ncnc21)OCOC(=O)C(C)(C)C` is reported as -0.43%.
`C#C[C@]1(O)CC[C@H]2[C@@H]3CCC4=CCCC[C@@H]4[C@H]3CC[C@@]21C` has an inhibition of 0%.
For `CC[C@]1(O)C[C@@H]2CN(CCc3c([nH]c4ccccc34)[C@@](C(=O)OC)(c3cc4c(cc3OC)N(C)[C@H]3[C@@](O)(C(=O)OC)[C@H](OC(C)=O)[C@]5(CC)C=CCN6CC[C@]43[C@@H]65)C2)C1`, the inhibition was 1.87%.
`O=C(Nc1ccc(C(F)(F)F)cn1)N1CCN(c2ncccc2C(F)(F)F)CC1` has an inhibition of -17.7%.
The inhibition of `Cc1ccc2c(c1)[C@H]1CN(C)CC[C@H]1N2` is reported as 2.76%.
With `O=C(O)c1ccc(NC2O[C@H](CO)[C@@H](O)[C@H](O)[C@@H]2O)cc1` (stereo in doubt) the inhibition was 1.41%.
`CCC(=O)Nc1cccc(Oc2nc(Nc3ccc(N4CCN(C)CC4)cc3OC)ncc2Cl)c1` has an inhibition of 2.85%.
The inhibition of `Cc1ccc(-n2nc(C(C)(C)C)cc2NC(=O)NCc2cc(F)ccc2Oc2ccc3c(cnn3CCO)c2)cc1` is reported as 2.73%.
The inhibition of `C[C@@H]1COCCN1c1cc(C2([S@](C)(=N)=O)CC2)nc(-c2cc[nH]c3nccc2-3)n1` is reported as -7.68%.
The inhibition of `CC(C)N(CCNC(=O)CN1CCCC1=O)C(C)C` is reported as -4.66%.
`O=C1OC2(c3ccc(O)cc3Oc3cc(O)ccc32)c2ccccc21` gave an inhibition of 236%.
With `O=[N+]([O-])c1ccc2c(c1)S(=O)(=O)C=C2` the inhibition was 6.84%.
The inhibition of `CCOC(=O)c1ccccc1OC(=O)CCCCCCCC(=O)Oc1ccccc1C(=O)OCC` is reported as 6.81%.
The inhibition of `C[C@H]1NCc2cc(-c3ccc4c(=O)c(C(=O)O)cn(C5CC5)c4c3OC(F)F)ccc21` is reported as 1.89%.
With `C[C@H](Cn1cnc2c(N)ncnc21)OCP(=O)(O)O` the inhibition was 16.9%.
With `c1cc(CN2CCCNCCNCCCNCC2)ccc1CN1CCCNCCNCCCNCC1` the inhibition was -4.09%.
`CC1(C)OC2(C)C(O)CC1CC2O` (centres unmarked) gave an inhibition of -2.53%.
For `Cn1cc(C2=C(c3cn(C4CCN(Cc5ccccn5)CC4)c4ccccc34)C(=O)NC2=O)c2ccccc21`, the inhibition was -8.92%.
`Cc1cccc(C(=O)NCN2CCN(c3ccccc3C#N)CC2)c1` has an inhibition of -1.83%.
For `CCCCCCCCCCCCCCCCCC(=O)OCC(O)CO` (centres unmarked), the inhibition was -8.44%.
`CC(=O)N1CCN(CCOc2ccc(C3CCN(C4=Nn5c(nnc5C(F)(F)F)CC4)CC3)cc2)CC1` has an inhibition of -2.36%.
For `CN(CCCN1c2ccccc2CCc2ccccc21)CC(=O)c1ccc(Cl)cc1`, the inhibition was 0.51%.
The inhibition of `Cc1c(N)nc([C@H](CC(N)=O)NC[C@H](N)C(N)=O)nc1C(=O)N[C@H](C(=O)N[C@H](C)[C@@H](O)[C@H](C)C(=O)N[C@H](C(=O)NCCc1nc(-c2nc(C(=O)NCCCNCCCCN)cs2)cs1)[C@@H](C)O)[C@@H](O[C@@H]1O[C@@H](CO)[C@@H](O)[C@H](O)[C@@H]1O[C@@H]1O[C@H](CO)[C@@H](O)[C@H](OC(N)=O)[C@@H]1O)c1cnc[nH]1` is reported as -8.66%.
`CCCCC/N=c1\ccn(Cc2ccccc2)c2ccccc12` has an inhibition of -6.06%.

Some of these lines once more (study 5):
`CCC(=O)Nc1cccc(Oc2nc(Nc3ccc(N4CCN(C)CC4)cc3OC)ncc2Cl)c1` has an inhibition of 2.85%.
The inhibition of `C[C@H]1NCc2cc(-c3ccc4c(=O)c(C(=O)O)cn(C5CC5)c4c3OC(F)F)ccc21` is reported as 1.89%.
`CCCCC/N=c1\ccn(Cc2ccccc2)c2ccccc12` has an inhibition of -6.06%.
